# Published values pooled from the literature.
# Each numbered part is a random draw from the data of one study; scales do not carry over between parts.

# Block 1 — method: protein binding microarray; molecule type: double-stranded DNA, one strand shown; matrix: in vitro; tested at: not given; relative to: not given; reading: higher = stronger binding
# Target: Histone acetyltransferase KAT6A, winged helix 1, GST fusion (KAT6A, Homo sapiens, UniProt Q92794, residues 1-85)
# Setting: 8-mer, flanks averaged, mean of 2 arrays, mostly near background
# Target sequence (chain): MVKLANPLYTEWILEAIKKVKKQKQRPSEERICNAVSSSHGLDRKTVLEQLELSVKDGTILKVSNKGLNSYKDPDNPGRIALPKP
Sequence,E-score
AGCATGAT,-0.189
AGGACACC,0.0546
CGAACTTA,0.0103
TATCGTAA,0.0805
CAGCAGTA,-0.187
AAAGACTT,-0.271
CCCATTCG,-0.0787
AACGCATG,0.056

# Block 2 — read-out: enzyme activity; action: inhibitor; tested at: 20 µM
# Target: Replicase polyprotein 1ab, polymerase (rep, Severe acute respiratory syndrome coronavirus 2, UniProt P0DTD1)
SMILES,inhibition [%]
O=C(O)Cc1ccc(OCc2ccccc2)c(Cl)c1,-1
Cc1cc(OCc2nnc(SC3CCCC3)n2-c2cccnc2)ccc1-c1ccc(S(C)(=O)=O)cc1,-0.11
O=C(Nc1cc(-c2ccccc2)nn1-c1ccccc1)c1ccc([N+](=O)[O-])cc1,1.28
Cc1ccc(C(=O)Nc2ccc(Oc3cc4cnn(C)c4cc3-c3cn[nH]c3)c(F)c2)c(=O)n1-c1ccc(F)cc1,1.8
C[C@@H]1Cc2c([nH]c3ccccc23)[C@@H](c2c(F)cc(/C=C/C(=O)O)cc2F)N1CC(C)(C)F,-2.78
C[C@@H]1[C@H](O)[C@@H](C)/C=C/C=C/CC/C=C/C=C/C=C/C=C/[C@H](O[C@@H]2O[C@H](C)[C@@H](O)[C@H](N)[C@@H]2O)C[C@@H]2O[C@](O)(C[C@@H](O)[C@H](O)CC[C@@H](O)C[C@@H](O)C[C@@H](O)CC(=O)O[C@H]1C)C[C@H](O)[C@H]2C(=O)O,-0.47
CNNCc1ccc(C(=O)NC(C)C)cc1,0.45
CC(COc1ccccc1)N(CCCl)Cc1ccccc1 (stereo not shown),-0.87
O=C(O)C[C@H]1CC[C@H](c2ccc(-c3ccc(Nc4ccc(C(F)(F)F)nc4)cn3)cc2)CC1,-3.71
Cc1cccc(Nc2ccncc2S(=O)(=O)NC(=O)NC(C)C)c1,-14.2
COc1cc2c(cc1Cc1cccc(Cl)c1F)c(=O)c(C(=O)O)cn2[C@H](CO)C(C)C,1.04
Cc1ccc(NC2=CC(=O)c3sc(C)nc3C2=O)cc1,1.78
Cc1cc(Cl)ccc1OCCCC(=O)NO,0.81
Cc1ccnc(NS(=O)(=O)c2ccc(N)cc2)n1,27
CC(=O)Oc1cc(C(C)C)c(OCCN(C)C)cc1C,-3.52
CN(C(=O)CCCOc1ccc2[nH]c(=O)ccc2c1)C1CCCCC1,3.54
Cc1cccc(C)c1NC(=O)c1ccc(N)cc1,-0.64
CC(=O)O[C@H]1CC[C@@]2(C)C(=CC(=O)[C@@H]3[C@@H]2CC[C@]2(C)C(=O)CC[C@@H]32)C1,-3.69
O=C(Nc1ccc2[nH]ccc2c1)c1ccccc1,-1.1
CNCCC(Oc1ccccc1OC)c1ccccc1 (stereo not shown),1.61
CS(=O)(=O)c1ccc(Oc2cc(F)cc(C#N)c2)c2c1[C@H](O)C(F)(F)C2,1.88
O=S(=O)(O)NC1CCCCC1,-3.44
COCC1=C(C(=O)O)N2C(=O)[C@@H](NC(=O)/C(=N\OC)c3csc(N)n3)[C@H]2SC1,4.08
C[C@H](O)[C@H](O)[C@H]1CNc2nc(N)[nH]c(=O)c2N1,-2.23
CCOC(=O)[N-]c1c[n+](N2CCOCC2)no1,16.1

# Block 3 — read-out: enzyme activity; action: inhibitor; tested at: 20 µM
# Target: Replicase polyprotein 1ab, main protease (rep, Severe acute respiratory syndrome coronavirus 2, UniProt P0DTD1)
Compound,inhibition [%]
C/N=c1/nc(-c2ccccc2)n(-c2ccccc2)s1,-11.6
CCOc1ccc(Nc2nc(-c3c(C)nc4ccccn34)cs2)cc1,-23.7
CCCCCCCCCCCCCCCCCC[S+](CCC)c1ccccc1C(=O)OCC (stereo not shown),89.9
Nc1nc(-c2ccc(Cl)c(Cl)c2)c(-c2ccncc2)s1,-20.4
COC(=O)[C@H](CCSC)NC(=O)c1ccc(NC[C@@H](N)CS)cc1-c1ccccc1,83

# Block 4 — method: universal PBM; molecule type: double-stranded DNA, one strand shown; matrix: in vitro; tested at: 600 nM; reading: higher = stronger binding
# Target: Sal-like protein 4, full length isoform A (SALL4, Homo sapiens, UniProt Q9UJQ4, residues 1-1053)
# UniProt Q9UJQ4, sequence (whole entry, looked up): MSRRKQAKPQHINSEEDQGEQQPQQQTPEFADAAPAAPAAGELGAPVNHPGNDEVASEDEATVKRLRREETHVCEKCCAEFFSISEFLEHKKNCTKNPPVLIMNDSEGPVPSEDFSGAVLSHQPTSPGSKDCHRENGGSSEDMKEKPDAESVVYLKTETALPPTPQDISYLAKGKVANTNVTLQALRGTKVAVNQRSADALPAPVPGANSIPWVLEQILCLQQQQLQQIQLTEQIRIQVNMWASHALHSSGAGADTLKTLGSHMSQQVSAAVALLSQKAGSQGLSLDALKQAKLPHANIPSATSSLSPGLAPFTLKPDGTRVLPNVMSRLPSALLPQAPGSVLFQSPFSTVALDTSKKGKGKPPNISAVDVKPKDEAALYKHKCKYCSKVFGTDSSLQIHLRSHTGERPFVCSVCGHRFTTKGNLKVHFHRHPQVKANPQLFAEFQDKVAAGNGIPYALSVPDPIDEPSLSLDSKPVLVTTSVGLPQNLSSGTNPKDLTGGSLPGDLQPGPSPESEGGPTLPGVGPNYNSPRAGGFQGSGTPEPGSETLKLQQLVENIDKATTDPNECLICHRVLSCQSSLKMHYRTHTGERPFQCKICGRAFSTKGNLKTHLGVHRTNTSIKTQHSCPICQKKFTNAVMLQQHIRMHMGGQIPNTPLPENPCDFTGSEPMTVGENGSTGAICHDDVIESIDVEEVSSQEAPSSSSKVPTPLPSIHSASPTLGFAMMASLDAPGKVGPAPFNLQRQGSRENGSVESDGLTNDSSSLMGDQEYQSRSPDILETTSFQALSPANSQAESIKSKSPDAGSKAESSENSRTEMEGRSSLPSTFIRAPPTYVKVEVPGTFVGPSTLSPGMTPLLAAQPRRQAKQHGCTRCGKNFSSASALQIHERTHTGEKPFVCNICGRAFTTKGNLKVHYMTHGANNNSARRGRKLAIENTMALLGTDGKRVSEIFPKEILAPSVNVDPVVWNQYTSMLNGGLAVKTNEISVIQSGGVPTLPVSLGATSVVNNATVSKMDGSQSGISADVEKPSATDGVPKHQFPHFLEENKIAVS
# Setting: 8-mer, flanks averaged, mean of replicates
Sequence,E-score
CTTCGGAC,-0.0715
ATAACTCA,0.277
AGCCAAAT,0.0268
AATGTAAA,0.297
AGTGCACT,0.0802
ACTCGACG,-0.145
GATGGGAC,-0.15
AAACCCAA,0.181

# Block 5 — cell line: HEK-293T/ACE2; tested at: concentration not given; time: 16 (unit not given); relative to: vehicle
SMILES,viability [%]
C[C@]12CC[C@H]3[C@@H](CCC4=CC(=O)CC[C@@H]43)[C@@H]1CC[C@@H]2O,98.2
C[C@H](Cn1cnc2c(N)ncnc21)OCP(=O)(O)O,95.7
O=C1c2c(O)ccc(O)c2C(=O)c2c(NCCNCCO)ccc(NCCNCCO)c21,72.9
CC(C)(C)NC[C@H](O)COc1nsnc1N1CCOCC1,103
C[C@]12COC(=O)C[C@@H]1CC[C@@H]1[C@@H]2CC[C@@]2(C)[C@H]1CC[C@]2(C)O,98.2
CC(=O)O[C@H]1C[C@@H]2CC[C@@H]3[C@H](CC[C@@]4(C)[C@H]3C[C@H]([N+]3(C)CCCCC3)[C@@H]4OC(C)=O)[C@@]2(C)C[C@@H]1N1CCCCC1,103

# Some of these lines once more (block 2):
SMILES,inhibition [%]
CNNCc1ccc(C(=O)NC(C)C)cc1,0.45
CC(COc1ccccc1)N(CCCl)Cc1ccccc1 (stereo not shown),-0.87
O=C(O)C[C@H]1CC[C@H](c2ccc(-c3ccc(Nc4ccc(C(F)(F)F)nc4)cn3)cc2)CC1,-3.71
Cc1cccc(Nc2ccncc2S(=O)(=O)NC(=O)NC(C)C)c1,-14.2
COc1cc2c(cc1Cc1cccc(Cl)c1F)c(=O)c(C(=O)O)cn2[C@H](CO)C(C)C,1.04
Cc1ccc(NC2=CC(=O)c3sc(C)nc3C2=O)cc1,1.78
Cc1cc(Cl)ccc1OCCCC(=O)NO,0.81
